Measured values pooled from the literature.
Every numbered part comes from another study and shows a few of its results, in no order. Changes are numbered by the printed parent chain.

Sample 1
Target: RING finger protein unkempt homolog, zinc fingers 1-6, GST-SBP tag (UNK, Homo sapiens, UniProt Q9C0B0, residues 30-357)
UniProt Q9C0B0, sequence (30-357, looked up): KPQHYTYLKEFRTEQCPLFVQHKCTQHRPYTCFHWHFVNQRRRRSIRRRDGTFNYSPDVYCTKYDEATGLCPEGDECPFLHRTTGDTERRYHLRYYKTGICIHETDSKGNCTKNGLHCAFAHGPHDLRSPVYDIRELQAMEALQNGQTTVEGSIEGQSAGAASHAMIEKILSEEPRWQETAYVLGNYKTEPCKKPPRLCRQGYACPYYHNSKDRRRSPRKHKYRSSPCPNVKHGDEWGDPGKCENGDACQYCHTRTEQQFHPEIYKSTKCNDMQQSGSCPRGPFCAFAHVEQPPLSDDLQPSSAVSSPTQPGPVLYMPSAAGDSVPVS
Technique: RNA Bind-n-Seq
Molecule type: RNA
Medium: in vitro
Concentration: not given
Setting: RNA with constant flanks, human and mouse sites, ends assumed
Relative to: input RNA pool
Reading: higher = stronger binding
All sequences stand within: GGGAGUUCUACAGUCCGACGAUC … CAACAGAGGAUUGAGCAUCA
Oligonucleotide	bound/input enrichment [ratio]
CAAGUAAAAGAAGAACAGCUUAAAAAUUCUACAGAGGAAAUAAUGCCAUCAGACAAACAGUUAAUUAAAAUGGAAAAGAAGGAAGAAGAAGAAAACGGAGAAAGACCUAGAAAGAAAAAG	0.849
AAAAUAAACAGAAUAGACCAUGACCGGAGAGCGAUGGCUACUUUAUUGAGUAAAUUCCGGAUAGACUUCUCUGAUAUCAUGGUCCUUGGAGAUAUCAACACCAAGCCAAAAAAAGAAAAU	0.264
CUGAACAGUAUUUUGCAACAUGCAAAAGAUUUUAAGGAAUAUCAUCGGUCUGUGGCCGGAAAGAUCCAGAAGCUCUCCAAAGCAGUGGCAACUUGGCAUGCCAACACUGAAAGAGAGCAG	0.108
UCAAGGGCACGAGCAUCGGCCAUGCCUUUCUUGGACAUCCAGAAAAGGUUCGGCCUUAACAUAGAUCGAUGGUUGACAAUCCAGAGUGGUGAACAGCCCUACAAGAUGGCUGGUCGAUGC	0.19
AUGUGAUGGGCAUUGAGCCACACCUCUUCUUAGACUGAAUAUUGAAGUUUUUGUUUUGAGUUAUGUUUAUAACAUUUAUUUCAGAACAAUAAAGAUUCAGAUUUGUGACAAAGGCCUUAA	0.165

Sample 2
Target: Interferon regulatory factor 3, full length, phosphomimetic (IRF3, Homo sapiens, UniProt Q14653, residues 1-427, S386D/S396D/S398D/S402D/T404D/S405D)
Technique: protein-binding microarray
Molecule type: double-stranded DNA, one strand shown
Medium: in vitro
Concentration: 2540 nM top
Setting: 60-bp whole probe
Added: salmon DNA 0.4 mg/ml
Relative to: random background probes
Reading: higher = stronger binding
All sequences stand within: GCCTAGCAC … GTCTTGATTCGCTTGACGCTGCTG
Residues (chain): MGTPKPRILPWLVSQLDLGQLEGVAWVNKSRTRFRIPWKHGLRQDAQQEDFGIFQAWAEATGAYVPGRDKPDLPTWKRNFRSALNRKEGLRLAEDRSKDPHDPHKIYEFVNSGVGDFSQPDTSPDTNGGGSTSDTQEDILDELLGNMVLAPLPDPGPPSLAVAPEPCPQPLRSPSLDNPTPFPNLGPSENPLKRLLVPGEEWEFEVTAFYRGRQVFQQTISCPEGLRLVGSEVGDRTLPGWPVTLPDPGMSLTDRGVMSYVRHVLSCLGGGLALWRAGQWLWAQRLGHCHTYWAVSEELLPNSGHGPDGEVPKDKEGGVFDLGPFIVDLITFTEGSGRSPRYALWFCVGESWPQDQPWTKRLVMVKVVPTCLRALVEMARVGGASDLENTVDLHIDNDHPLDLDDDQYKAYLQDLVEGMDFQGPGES
Oligonucleotide	fitted relative affinity [z-score]
TTAGGACTGGACACGGGGTTAGTGCTA	-0.835
TCATATATATTATATATTACTGTGCTA	0.56
CTAGGACTGGACTTTCGGTTAGTGCTA	1.11
TCAGGTTTGAGTCTTCTACTGTGCTAG	-0.064
TCACAAGTTTCACGTCTTACTGTGCTA	1.12
GACAGTATCGGGTTTCGGGACGTGCTA	3.15
GACGGTTTCCTTTCCCTGGCGTGCTAG	10.2

Sample 3
Target: CCNB1, cyclin fold, Cln2 fusion (human)
Technique: yeast growth competition, sequencing
Medium: yeast
Setting: weak parent motif
Relative to: not given
Reading: higher = stronger binding
Parent: GMNC docking peptide (human); KNAKRNLSSEFAN
Substitution	normalised enrichment score
F11M	0.274
N6P	0.18
N2K	0.467
S8E	-0.027
K4N	0.0982
S8N	0.713
A3V	0.614

Single results of other studies
Molecule	target	assay	test system	conditions	how to read	quantity	result
PhoQ, residues 284 288 289 292 302 303 AGCYAI	PhoP, residues 12 14 15 18 19 SGWQI (Escherichia coli, UniProt P23836)	Sort-seq, refers to: YFP reporter	E. coli	PhoQ-PhoP variant library, added: 10 µM Mg2+	relative to: high Mg2+ state, higher = stronger signaling	fold induction	1.74

Some of these lines once more (sample 2):
Oligonucleotide	fitted relative affinity [z-score]
TCATATATATTATATATTACTGTGCTA	0.56
CTAGGACTGGACTTTCGGTTAGTGCTA	1.11
